# Assay results from different studies.
# Each numbered part is a random draw from the data of one study; scales do not carry over between parts. “And” joins repeats or separate records; there may be more than shown.

# Study 1 — cell line: Huh-7; concentration: 10 µM; time: 24 h
SMILES,viability [%]
CCCCc1nc(Cl)c(CO)n1Cc1ccc(-c2ccccc2-c2nn[nH]n2)cc1,97.8
Cc1ccc(Cl)c(Nc2ccccc2C(=O)O)c1Cl,96.7
CN(C)[C@@H]1C(O)=C(C(N)=O)C(=O)[C@@]2(O)C(O)=C3C(=O)c4c(O)ccc(Cl)c4[C@@](C)(O)[C@H]3C[C@@H]12,90.3
COc1cc(OC)c2c(c1)OC(c1ccccc1)CC2=O (stereo not shown),99.3
O=C(CNC(=O)c1ccc(Cl)cc1)NO,97.9
NC[C@H]1CC[C@H](C(=O)O)CC1,100
OCCN(CCO)c1nc(N2CCCCC2)c2nc(N(CCO)CCO)nc(N3CCCCC3)c2n1,95.8
CC1(C)O[C@@H]2C[C@H]3[C@@H]4C[C@H](F)C5=CC(=O)C=C[C@]5(C)[C@@]4(F)[C@@H](O)C[C@]3(C)[C@]2(C(=O)CO)O1,98.2
CN(C)[C@@H]1C(O)=C(C(N)=O)C(=O)[C@@]2(O)C(O)=C3C(=O)c4c(O)cccc4[C@@](C)(O)[C@H]3[C@H](O)[C@@H]12,91.2
COc1ccc(C(=O)c2ccccc2O)c(O)c1,96.3
NC(=O)NC(=O)Cc1ccccc1,98.5
CC(=O)N1CCN(c2ccc(OC[C@@H]3CO[C@@](Cn4ccnc4)(c4ccc(Cl)cc4Cl)O3)cc2)CC1 (racemic),72.6
CC(C)[N+](C)(CCOC(=O)C1c2ccccc2Oc2ccccc21)C(C)C,106
CN(C)/N=N/c1[nH]cnc1C(N)=O,94.9
CC1=CC(=O)c2ccccc2C1=O,57.6
CCCCC(=O)O[C@]1(C(=O)CO)CC[C@H]2[C@@H]3CCC4=CC(=O)CC[C@]4(C)[C@H]3[C@@H](O)C[C@@]21C,96.9
COc1ccccc1OCC(O)CN1CCN(CC(=O)Nc2c(C)cccc2C)CC1 (stereo not shown),96.4

# Study 2 — effect on: enzyme activity; mode: inhibitor; concentration: 0.5 µM; relative to: control
# Target: Serine/threonine-protein kinase Sgk1 (SGK1, Homo sapiens, UniProt O00141)
# Sequence of UniProt O00141 (whole entry, looked up): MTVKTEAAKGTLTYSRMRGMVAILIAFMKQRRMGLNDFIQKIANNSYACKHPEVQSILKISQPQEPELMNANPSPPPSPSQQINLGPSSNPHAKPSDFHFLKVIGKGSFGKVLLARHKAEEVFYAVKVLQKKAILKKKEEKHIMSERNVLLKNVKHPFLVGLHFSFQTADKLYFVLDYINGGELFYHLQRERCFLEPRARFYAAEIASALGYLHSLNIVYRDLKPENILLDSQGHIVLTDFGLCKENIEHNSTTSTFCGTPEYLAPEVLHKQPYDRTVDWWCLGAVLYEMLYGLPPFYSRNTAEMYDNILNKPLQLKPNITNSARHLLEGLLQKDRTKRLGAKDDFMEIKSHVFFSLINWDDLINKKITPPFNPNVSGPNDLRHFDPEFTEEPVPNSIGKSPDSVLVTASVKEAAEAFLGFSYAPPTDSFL
SMILES,remaining activity [%]
O=c1c(-c2ccc(F)cc2)c(-c2ccncc2)[nH]n1-c1ccc(Cl)cc1,97.3
CCCCc1c(-c2ccc(O)cc2)[nH]c2nccnc12,88.1
COc1cc2c(N3CCN(C(=O)Nc4ccc(OC(C)C)cc4)CC3)ncnc2cc1OCCCN1CCCCC1,123
Clc1ccc(Nc2nnc(Cc3ccncc3)c3ccccc23)cc1,121
NC(=O)c1cccc(-c2cc(Nc3ccc(OC(F)(F)F)cc3)ncn2)c1,101
N#C/C(=C(/N)SC1C=CC=CC1)c1cccc(C(O)c2ccncc2)c1 (stereo not shown),107
FC(F)(F)c1ccc(/C=C/c2nc(COc3ccc(CCCCn4ccnn4)cc3)co2)cc1,102
NC(=O)c1ccc(-c2nc(-c3ccc4c(c3)OCCO4)c(-c3ccccn3)[nH]2)cc1,110
O=C(c1ccccc1)c1ccc(N2CCOCC2)cc1O,101
CCN(CC)CCCCN1c2ccccc2Oc2ccc(Cl)cc21,99.4
CC(C)n1cnc2c(Nc3cccc(Cl)c3)nc(NCCO)nc21,114
O=Nc1c(-c2c(O)[nH]c3ccccc23)[nH]c2ccccc12,69.1
CNc1cc2c(Nc3cccc(Br)c3)ncnc2cn1,94.4
O=C1c2ccccc2-c2nc3nnnn3nc21,67.2
CC(C)N(CCC(=O)c1ccc2ccccc2c1)Cc1ccccc1,101
COc1cc2c(Nc3ccc(Br)cc3F)ncnc2cc1OCC1CCN(C)CC1,115
c1cc(-c2cnn3cc(-c4ccc(OCCN5CCCCC5)cc4)cnc23)ccn1,55.2
CC(C)(C)c1nc2c3cc[nH]c(=O)c3c3cc(F)ccc3c2[nH]1,50.9
O=C1NC(=O)/C(=C/c2ccc3c(c2)OC(F)(F)O3)S1,102
Nc1nc(Nc2ccc(S(N)(=O)=O)cc2)nn1C(=S)Nc1c(F)cccc1F,48.7
O=C(O)/C=C/c1cc(Br)c(Br)c(Br)c1Br,76.7
N#CC(c1ccnc(NCCc2cccnc2)n1)c1nc2ccccc2s1 (stereo not shown),100
C[C@@H](N)[C@H]1CC[C@H](C(=O)Nc2ccncc2)CC1,96.9

# Study 3 — cell line: normal-adjacent organoid sample E; method: CellTiter-Glo; concentration: 1 µM; notes: replicate mean; relative to: DMSO
SMILES,viability [%]
c1ccc2oc(-c3csc(C4CCN(Cc5nc6ncccc6[nH]5)CC4)n3)cc2c1,49.6
Cc1c(N2CCCC2)nc2ccc(Br)cc2c1C(=O)NC[C@H](CCC(=O)O)c1ccccc1Cl,97.2
NS(=O)(=O)c1cc(NC(=O)C2(c3ccccc3Cl)CC2)ccc1Oc1cccc(Cl)c1,110
O=C(NC[C@@H]1[C@H]2CN(C(=O)OCc3cc(C(F)(F)F)cc(C(F)(F)F)c3)C[C@@H]12)c1ccc2[nH]nnc2c1,82.8
CNCc1ccccc1-c1csc([C@@H](C)Nc2nc(C)nc3cc(OC)c(OC)cc23)c1,49.6
CC(=O)c1c(NS(C)(=O)=O)c2cc(-c3ccc(Cl)cc3)c(-c3ccc(Cl)cc3Cl)nc2n(C)c1=O,89.5
O=C(N1CCS(=O)(=O)CC1)N1C[C@H](c2ccc(OC(F)(F)F)cc2)C[C@H](c2nc(C3CC3)no2)C1,89.6
CCc1ccccc1C(=O)Nc1n[nH]c2c(C)c(F)c(C3C(C#N)=C(C)N(C)C(C)=C3C#N)cc12,87.6
Cc1c(N2CCNCC2)nc2ccc(Br)cc2c1C(=O)NC[C@H](CCC(=O)O)c1ccccc1Cl,106
Cc1c(NC(=O)c2ccc(C(C)(C)C)cc2)cccc1-c1cn(C)c(=O)c(Nc2ccc(C(=O)N3CCOCC3)cc2)n1,87.2
O=C(O)[C@@H]1[C@@H](Cn2nnc3ccccc3c2=O)CC[C@H]1C(=O)c1ccc(OCCC2CCOCC2)cc1,106
O=C1NC(c2ccccn2)Sc2ccccc21 (stereo not shown),111
CC(=O)C1=C(C)N(c2cccc(C(F)(F)F)c2)C(=O)N[C@@H]1c1ccc(C#N)nc1,114
CC(=O)N1CCC(c2ccc(C(=O)NC(=N)N)cc2C(F)(F)F)CC1,96.3
Cc1cc(NC(=O)c2cccc(S(F)(F)(F)(F)F)c2)cc(-n2ccn3nc(-c4cccnc4)cc23)c1,110
c1ccc(N2CCN(Cc3nc4ccccc4[nH]3)CC2)nc1,134
CCNC(=O)c1cc2c(N3CCOC[C@@H]3C)ccnc2[nH]1,114
CO[C@@H](C)c1c(Nc2ccc([C@@H](N(C)C(=O)C3CCS(=O)(=O)CC3)C(F)(F)F)cc2)cnc2cc(Cl)nn12,129
O=C(NCc1ncc(C(F)(F)F)cc1Cl)c1ccc2c(c1)C1(CCS(=O)(=O)CC1)[C@@H](C1CC1)N2S(=O)(=O)c1ccc(F)cc1,108
CN(C)c1ncnc(-c2ccc3nc(Nc4cc(CN5CCN(C(=O)CC(F)(F)F)CC5)ccn4)[nH]c3c2)c1Cl,90
O=C(Nc1cccnn1)N1CCC(=Cc2cccc(Oc3ccc(C(F)(F)F)cn3)c2)CC1,87.7
Cc1nc(N2CC[C@@H](O)C2)ncc1-c1cc(C(F)(F)F)cc2[nH]ncc12,101

# Study 4 — cell line: mouse MPNST tumor cells; method: high-content immunofluorescence imaging; measured: nuclear SOX9; concentration: 10 µM; time: 12 h; notes: mean of 2 replicates; relative to: DMSO control; direction: higher = more nuclear SOX9
Compound,nuclear SOX9 intensity
CCCc1nc(C(C)(C)O)c(C(=O)O)n1Cc1ccc(-c2ccccc2-c2nnn[nH]2)cc1,117 % of DMSO and 102 % of DMSO
Nc1ncnc2c1ncn2C1OC(COP(=O)(O)O)C(O)C1O (stereo not shown),101 % of DMSO
Cc1cc(C)cc(NC(N)=Nc2ccccc2C(F)(F)F)c1,126 % of DMSO
CNc1nnc(SCc2ccccc2)s1,100 % of DMSO
Cc1ccccc1COc1ccc(C2C3=C(CC(C)(C)CC3=O)OC3=C2C(=O)CC(C)(C)C3)cc1,112 % of DMSO
CO/N=C(\C(=O)N[C@@H]1C(=O)N2C(C(=O)O)=C(COC(C)=O)CS[C@H]12)c1csc(N)n1,103 % of DMSO
Cc1nc(Nc2ccc(F)cc2)sc1C(=O)c1ccsc1,123 % of DMSO
Cc1cnc(NC(=O)c2cc(S(=O)(=O)N(C)C)ccc2N2CCCC2)s1,94 % of DMSO
CN1CCN(c2ccc(-c3cccc(CN4CCOCC4)c3)cc2NC(=O)c2c[nH]c(=O)cc2C(F)(F)F)CC1,93.7 % of DMSO and 102 % of DMSO
O=C(Nc1cc(C(F)(F)F)ccc1N1CCCCC1)c1ccncc1,99.9 % of DMSO
CNC(=O)c1c(I)c(C(=O)NCC(=O)Nc2c(I)c(C(=O)O)c(I)c(C(=O)NCCO)c2I)c(I)c(N(C)C(C)=O)c1I,93.1 % of DMSO
CC(=O)NS(=O)(=O)c1ccc(NC(=O)c2ccccc2C(=O)O)cc1,105 % of DMSO
CC(=O)CC(c1ccccc1)c1c(O)c2ccccc2oc1=O (stereo not shown),106 % of DMSO
COCCOC(=O)C1=C(C)NC(C)=C(C(=O)OC(C)C)C1c1cccc([N+](=O)[O-])c1 (stereo not shown),107 % of DMSO

# Repeated from above (study 2):
SMILES,remaining activity [%]
Clc1ccc(Nc2nnc(Cc3ccncc3)c3ccccc23)cc1,121
CCCCc1c(-c2ccc(O)cc2)[nH]c2nccnc12,88.1
FC(F)(F)c1ccc(/C=C/c2nc(COc3ccc(CCCCn4ccnn4)cc3)co2)cc1,102
CCN(CC)CCCCN1c2ccccc2Oc2ccc(Cl)cc21,99.4
CC(C)n1cnc2c(Nc3cccc(Cl)c3)nc(NCCO)nc21,114
C[C@@H](N)[C@H]1CC[C@H](C(=O)Nc2ccncc2)CC1,96.9
O=C(O)/C=C/c1cc(Br)c(Br)c(Br)c1Br,76.7
O=C1NC(=O)/C(=C/c2ccc3c(c2)OC(F)(F)O3)S1,102
N#C/C(=C(/N)SC1C=CC=CC1)c1cccc(C(O)c2ccncc2)c1 (stereo not shown),107
Nc1nc(Nc2ccc(S(N)(=O)=O)cc2)nn1C(=S)Nc1c(F)cccc1F,48.7
CNc1cc2c(Nc3cccc(Br)c3)ncnc2cn1,94.4
